Measured values of several laboratories.
Numbered parts are unrelated; each lists some results of a single study.

Sample 1
Target: Ras GTPase-activating protein-binding protein 1, full length (G3BP1, Homo sapiens, UniProt Q13283)
Sequence of UniProt Q13283 (whole entry, looked up): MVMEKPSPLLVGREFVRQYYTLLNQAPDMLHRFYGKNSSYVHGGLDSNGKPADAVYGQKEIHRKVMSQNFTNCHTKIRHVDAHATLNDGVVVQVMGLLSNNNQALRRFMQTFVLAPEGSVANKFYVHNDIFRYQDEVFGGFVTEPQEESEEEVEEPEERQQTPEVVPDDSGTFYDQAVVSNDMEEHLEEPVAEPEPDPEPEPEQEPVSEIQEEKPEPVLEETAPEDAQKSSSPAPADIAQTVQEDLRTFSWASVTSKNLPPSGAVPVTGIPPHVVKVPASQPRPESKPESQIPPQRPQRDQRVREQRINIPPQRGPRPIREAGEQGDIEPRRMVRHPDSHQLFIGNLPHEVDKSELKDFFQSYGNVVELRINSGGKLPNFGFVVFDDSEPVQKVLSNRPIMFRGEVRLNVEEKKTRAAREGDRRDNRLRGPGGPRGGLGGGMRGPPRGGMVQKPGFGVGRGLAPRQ
Method: RNA Bind-n-Seq
Molecule type: RNA
Sample: in vitro
Concentration: 200 nM
Setting: whole 134-nt RNA, ends assumed
Together with: 150 mM KCl
Relative to: input library
Direction: higher = stronger binding
Strand | log2 enrichment
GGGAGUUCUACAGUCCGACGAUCCACAGACAACACGCACCCACACAGACACAGAAGGAAGGGGUUGGGAUGGGGACAGGGUGCACAGCAGGGCGGGGUAGGACCCCAGCCCCUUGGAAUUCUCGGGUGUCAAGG | 1.75
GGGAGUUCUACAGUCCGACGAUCGCAGGAAGUAAAAACAAAUGGAAAUGCUUCGGAUAGUGGCAGGGGUGGGGGUUGCUAACGAAAGGGUGGGAUGGGAGUGGGUAAAGAGUUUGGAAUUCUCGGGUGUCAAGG | 0.747
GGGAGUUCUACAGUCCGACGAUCCCUGUGCUACACAUCGUAUGUACCGAAUCGGGGAAAAAAAGGGGAAAAAAAGGGGUGGGGAAAGUAUUAUGUUACGCCGUUCGGAUCUGCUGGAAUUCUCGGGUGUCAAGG | 0.272
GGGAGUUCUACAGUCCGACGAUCCUCAAGUCCUGUGCUACACAUCGUAUGUACCGAAUCGGUUUGGAAAGGAAAGGAAAGUAUUAUGUUACGCCGUUCGGAUCUGCACUUCCAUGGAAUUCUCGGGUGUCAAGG | -0.361
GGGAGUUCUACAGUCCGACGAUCACCAUGCAGGUGGGCAUUUUUGGGAAGUGGGGCAAGGGGGGGAUAGGGAGGGGGGUAACACUUUGGGAACAGGUGGUCCCAGGUCGUUUCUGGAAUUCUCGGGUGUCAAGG | 1.28

Sample 2
Target: Interferon regulatory factor 5, full length, phosphomimetic (IRF5, Homo sapiens, UniProt Q13568-2, residues 1-514, S451D/S453D/S456D/S462D)
Method: protein-binding microarray
Molecule type: double-stranded DNA, one strand shown
Sample: in vitro
Concentration: 940 nM top
Setting: 60-bp whole probe
Together with: salmon DNA 0.4 mg/ml
Relative to: random background probes
Direction: higher = stronger binding
All sequences stand within: GCCTAGCAC … GTCTTGATTCGCTTGACGCTGCTG
Strand | fitted relative affinity [z-score]
TTAGGTTTCCTTCTCCTTGAGTGCTAG | 2.19
GCGCTTCTCGAGTGCCGGCTGGTGCTA | -0.124
TCATCTCCCATTATATTACTGTGCTAG | 1.42
GACGTTCTCAGACTGGAGACGTGCTAG | -0.0927
TTAGTTTTCAGTTTCGATTAGTGCTAG | 9.79
TTATATATCGGGTATCGATTAGTGCTA | 3
TCCGTATGGATGGCCAATTGGTGCTAG | -0.683
TTAAAACTGGGGTATCGATTAGTGCTA | 3.37

Sample 3
Target: PABPC1L2, full length, GST fusion (mouse, UniProt A0ABA7IW68)
Method: RNAcompete
Molecule type: RNA
Sample: in vitro
Concentration: 20 nM
Setting: 7-mer, probes averaged, single round
Relative to: mean of 7-mers
Direction: higher = stronger binding
Target sequence (chain): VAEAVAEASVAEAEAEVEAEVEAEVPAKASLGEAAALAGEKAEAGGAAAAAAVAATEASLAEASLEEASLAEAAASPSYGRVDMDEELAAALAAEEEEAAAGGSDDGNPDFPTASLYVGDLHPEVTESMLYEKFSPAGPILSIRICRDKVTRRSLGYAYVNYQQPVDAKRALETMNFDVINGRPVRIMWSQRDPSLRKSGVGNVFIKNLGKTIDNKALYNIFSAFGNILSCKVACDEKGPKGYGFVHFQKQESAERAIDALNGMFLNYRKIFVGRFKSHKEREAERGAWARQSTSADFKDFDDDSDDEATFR
Strand | 7-mer Z-score
UUUAUAA | 0.365
ACGCAAC | -0.101
GUACCCA | -0.287
GGGCAGA | 0.715
GAUAAAA | 4.71

Other studies, line by line
Molecule | target | test | system | conditions | how to read | endpoint | value
PhoQ, residues 284 288 289 292 302 303 SSCLAV | PhoP, residues 12 14 15 18 19 VQALL (Escherichia coli, UniProt P23836) | Sort-seq, item: YFP reporter | E. coli | PhoQ-PhoP variant library, together with: 10 µM Mg2+ | relative to: high Mg2+ state, higher = stronger signaling | fold induction | 8.66

Repeated from above (sample 3):
Strand | 7-mer Z-score
GGGCAGA | 0.715
GUACCCA | -0.287
